Published values pooled from the literature.
A part holds a random share of what one study measured.
Sequence of UniProt P50613 (whole entry, looked up): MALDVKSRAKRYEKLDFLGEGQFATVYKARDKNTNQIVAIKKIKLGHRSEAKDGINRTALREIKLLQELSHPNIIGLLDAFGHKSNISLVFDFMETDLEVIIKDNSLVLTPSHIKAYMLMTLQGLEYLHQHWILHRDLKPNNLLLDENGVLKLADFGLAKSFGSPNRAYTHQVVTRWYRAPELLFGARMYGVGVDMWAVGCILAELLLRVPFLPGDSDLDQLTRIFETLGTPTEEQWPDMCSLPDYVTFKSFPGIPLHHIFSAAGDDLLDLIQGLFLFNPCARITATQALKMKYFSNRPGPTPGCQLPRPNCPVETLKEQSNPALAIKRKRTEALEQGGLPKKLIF
Sequence of UniProt Q9H2G2 (whole entry, looked up): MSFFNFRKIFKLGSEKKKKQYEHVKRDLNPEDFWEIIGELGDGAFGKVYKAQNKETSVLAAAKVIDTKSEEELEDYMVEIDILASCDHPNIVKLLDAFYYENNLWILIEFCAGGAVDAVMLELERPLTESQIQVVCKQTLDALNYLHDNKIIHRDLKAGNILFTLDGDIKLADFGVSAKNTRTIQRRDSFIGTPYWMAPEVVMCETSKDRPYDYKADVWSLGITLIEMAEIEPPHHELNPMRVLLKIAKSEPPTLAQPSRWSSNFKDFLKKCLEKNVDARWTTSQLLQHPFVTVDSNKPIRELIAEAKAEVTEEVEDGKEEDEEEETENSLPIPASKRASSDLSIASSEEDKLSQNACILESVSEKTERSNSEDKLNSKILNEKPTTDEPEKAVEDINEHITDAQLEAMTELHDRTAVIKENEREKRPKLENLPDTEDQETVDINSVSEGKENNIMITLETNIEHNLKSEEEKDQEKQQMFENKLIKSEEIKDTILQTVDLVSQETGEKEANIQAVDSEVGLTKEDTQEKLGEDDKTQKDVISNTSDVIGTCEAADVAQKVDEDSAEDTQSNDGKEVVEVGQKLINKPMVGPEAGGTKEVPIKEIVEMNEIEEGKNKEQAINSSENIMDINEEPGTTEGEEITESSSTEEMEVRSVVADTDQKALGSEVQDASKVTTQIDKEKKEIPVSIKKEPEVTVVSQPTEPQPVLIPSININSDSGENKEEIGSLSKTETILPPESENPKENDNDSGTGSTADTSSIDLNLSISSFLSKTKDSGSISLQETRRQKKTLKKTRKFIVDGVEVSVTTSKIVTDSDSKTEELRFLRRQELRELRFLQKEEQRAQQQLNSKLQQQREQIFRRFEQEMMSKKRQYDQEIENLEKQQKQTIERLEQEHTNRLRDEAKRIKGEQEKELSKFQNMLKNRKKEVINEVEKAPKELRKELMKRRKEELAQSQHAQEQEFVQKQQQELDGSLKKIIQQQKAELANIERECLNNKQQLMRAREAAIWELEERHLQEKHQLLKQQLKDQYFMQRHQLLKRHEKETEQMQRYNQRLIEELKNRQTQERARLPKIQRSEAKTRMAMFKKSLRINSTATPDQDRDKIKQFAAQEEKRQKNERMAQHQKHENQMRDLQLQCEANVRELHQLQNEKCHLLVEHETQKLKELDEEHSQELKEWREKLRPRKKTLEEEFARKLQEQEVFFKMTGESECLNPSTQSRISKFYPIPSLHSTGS
Sequence of UniProt Q13163 (whole entry, looked up): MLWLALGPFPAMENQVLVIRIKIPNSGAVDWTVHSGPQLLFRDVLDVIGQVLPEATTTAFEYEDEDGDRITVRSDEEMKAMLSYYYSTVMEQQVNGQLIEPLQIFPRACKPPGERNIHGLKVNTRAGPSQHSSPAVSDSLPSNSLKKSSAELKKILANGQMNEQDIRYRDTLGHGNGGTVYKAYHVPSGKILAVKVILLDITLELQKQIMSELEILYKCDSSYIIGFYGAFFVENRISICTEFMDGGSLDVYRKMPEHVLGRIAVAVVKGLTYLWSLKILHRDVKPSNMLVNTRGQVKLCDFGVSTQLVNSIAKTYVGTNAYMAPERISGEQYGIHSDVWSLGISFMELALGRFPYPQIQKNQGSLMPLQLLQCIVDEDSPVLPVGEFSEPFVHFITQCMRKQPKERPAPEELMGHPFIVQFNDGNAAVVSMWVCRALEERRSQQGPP
Sequence of UniProt P08631 (whole entry, looked up): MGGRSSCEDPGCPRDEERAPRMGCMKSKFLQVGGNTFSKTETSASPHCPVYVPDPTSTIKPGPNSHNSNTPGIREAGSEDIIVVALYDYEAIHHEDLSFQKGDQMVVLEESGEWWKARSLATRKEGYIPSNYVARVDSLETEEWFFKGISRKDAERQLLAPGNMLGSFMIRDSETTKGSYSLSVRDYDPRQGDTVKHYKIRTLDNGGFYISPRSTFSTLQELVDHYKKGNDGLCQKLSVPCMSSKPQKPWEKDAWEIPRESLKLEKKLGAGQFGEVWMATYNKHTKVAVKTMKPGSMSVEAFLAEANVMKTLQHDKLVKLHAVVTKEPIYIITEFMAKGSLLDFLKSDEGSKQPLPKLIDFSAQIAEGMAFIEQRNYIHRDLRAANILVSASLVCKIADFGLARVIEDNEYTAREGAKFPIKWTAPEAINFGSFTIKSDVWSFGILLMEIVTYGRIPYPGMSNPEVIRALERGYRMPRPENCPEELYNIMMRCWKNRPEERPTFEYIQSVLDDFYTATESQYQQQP
Sequence of UniProt O14965 (whole entry, looked up): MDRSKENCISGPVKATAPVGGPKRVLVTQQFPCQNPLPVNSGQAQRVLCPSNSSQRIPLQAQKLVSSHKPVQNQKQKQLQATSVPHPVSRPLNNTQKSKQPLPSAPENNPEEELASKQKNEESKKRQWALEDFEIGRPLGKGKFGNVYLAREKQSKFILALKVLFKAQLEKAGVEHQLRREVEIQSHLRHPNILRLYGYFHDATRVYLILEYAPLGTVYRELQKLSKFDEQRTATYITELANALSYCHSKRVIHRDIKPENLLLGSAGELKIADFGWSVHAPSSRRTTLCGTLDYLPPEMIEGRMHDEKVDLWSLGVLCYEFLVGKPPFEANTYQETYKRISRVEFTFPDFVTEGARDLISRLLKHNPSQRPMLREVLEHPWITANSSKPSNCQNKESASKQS
Sequence of UniProt Q09013 (whole entry, looked up): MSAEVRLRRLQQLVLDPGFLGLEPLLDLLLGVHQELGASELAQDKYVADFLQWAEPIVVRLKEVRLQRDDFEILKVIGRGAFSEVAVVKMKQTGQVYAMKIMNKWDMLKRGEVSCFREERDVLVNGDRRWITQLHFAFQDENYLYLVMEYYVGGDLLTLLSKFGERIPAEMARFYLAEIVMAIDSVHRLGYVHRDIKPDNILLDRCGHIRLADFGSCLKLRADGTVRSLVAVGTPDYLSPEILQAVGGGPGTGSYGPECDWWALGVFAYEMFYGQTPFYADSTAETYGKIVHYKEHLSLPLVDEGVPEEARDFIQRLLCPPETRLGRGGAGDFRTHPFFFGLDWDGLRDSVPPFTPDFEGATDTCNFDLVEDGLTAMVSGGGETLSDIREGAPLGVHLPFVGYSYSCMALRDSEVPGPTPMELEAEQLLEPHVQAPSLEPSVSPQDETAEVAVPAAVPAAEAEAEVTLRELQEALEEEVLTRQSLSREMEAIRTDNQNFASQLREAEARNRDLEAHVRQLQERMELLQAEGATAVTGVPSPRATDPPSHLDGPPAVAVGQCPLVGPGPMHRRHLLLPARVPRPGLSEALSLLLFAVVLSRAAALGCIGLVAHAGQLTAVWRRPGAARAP
Sequence of UniProt Q86Z02 (whole entry, looked up): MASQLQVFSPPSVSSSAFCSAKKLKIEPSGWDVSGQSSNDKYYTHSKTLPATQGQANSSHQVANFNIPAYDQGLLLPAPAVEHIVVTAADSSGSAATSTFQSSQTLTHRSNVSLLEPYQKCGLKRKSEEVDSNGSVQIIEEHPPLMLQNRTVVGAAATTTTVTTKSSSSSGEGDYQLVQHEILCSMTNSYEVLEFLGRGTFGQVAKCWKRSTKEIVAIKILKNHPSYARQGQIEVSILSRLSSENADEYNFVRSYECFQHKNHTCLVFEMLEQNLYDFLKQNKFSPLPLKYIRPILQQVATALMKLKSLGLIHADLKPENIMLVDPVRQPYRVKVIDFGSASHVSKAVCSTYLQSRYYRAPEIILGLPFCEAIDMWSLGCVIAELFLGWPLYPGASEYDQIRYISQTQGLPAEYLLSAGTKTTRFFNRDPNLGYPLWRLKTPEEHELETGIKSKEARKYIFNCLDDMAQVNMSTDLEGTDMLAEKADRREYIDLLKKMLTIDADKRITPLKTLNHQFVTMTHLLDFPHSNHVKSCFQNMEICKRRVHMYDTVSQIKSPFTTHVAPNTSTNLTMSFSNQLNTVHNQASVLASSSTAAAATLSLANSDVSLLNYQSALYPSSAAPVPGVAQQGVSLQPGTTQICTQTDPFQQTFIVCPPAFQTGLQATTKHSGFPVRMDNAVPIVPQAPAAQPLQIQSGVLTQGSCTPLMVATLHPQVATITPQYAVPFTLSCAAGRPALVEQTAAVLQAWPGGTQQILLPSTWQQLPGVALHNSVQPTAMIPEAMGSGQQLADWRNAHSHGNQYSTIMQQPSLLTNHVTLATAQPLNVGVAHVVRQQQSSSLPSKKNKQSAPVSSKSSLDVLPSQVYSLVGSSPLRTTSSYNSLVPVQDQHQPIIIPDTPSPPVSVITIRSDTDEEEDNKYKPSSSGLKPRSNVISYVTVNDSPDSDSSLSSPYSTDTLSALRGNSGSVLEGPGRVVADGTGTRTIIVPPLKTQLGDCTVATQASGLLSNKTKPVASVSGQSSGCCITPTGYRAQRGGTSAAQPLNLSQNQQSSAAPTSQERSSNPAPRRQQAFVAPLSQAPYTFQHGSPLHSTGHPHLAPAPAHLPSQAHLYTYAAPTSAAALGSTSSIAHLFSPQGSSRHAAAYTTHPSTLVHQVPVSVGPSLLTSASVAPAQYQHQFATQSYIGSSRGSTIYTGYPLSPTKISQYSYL

Study 1 — mode: inhibitor; concentration: 10 µM; reference: control
Target: Diamine acetyltransferase 1 (Homo sapiens, UniProt P21673)
Residues (P21673 1-171): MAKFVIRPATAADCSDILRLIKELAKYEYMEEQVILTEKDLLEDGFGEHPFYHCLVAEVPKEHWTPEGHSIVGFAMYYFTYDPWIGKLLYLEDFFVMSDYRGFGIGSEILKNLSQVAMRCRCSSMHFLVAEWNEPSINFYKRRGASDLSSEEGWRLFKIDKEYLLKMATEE
SMILES	remaining activity
C=C1CC[C@H]2C[C@@H]1C2(C)C	112%
O=c1c(-c2ccc(O)cc2)coc2c([C@@H]3O[C@H](CO[C@@H]4OC[C@](O)(CO)[C@H]4O)[C@@H](O)[C@H](O)[C@H]3O)c(O)ccc12	93%
Oc1cc(O)c2c(c1)O[C@@]1(c3ccc(O)c(O)c3)Oc3cc(O)c4c(c3[C@@H]2[C@H]1O)O[C@H](c1ccc(O)c(O)c1)[C@H](O)C4	99.4%
C=C(C)[C@@H]1CC=C(C)C(=O)C1	88.8%

Study 2 — Compound: CCc1[nH]c(-c2ccc(OC)cc2)nc1-c1ccncc1; effect on: enzyme activity; mode: inhibitor; concentration: 0.5 µM; reference: control
target	remaining activity [%]
DYRK4 (Homo sapiens, UniProt Q9NR20)	100
MAPK10 (Homo sapiens, UniProt P53779)	100
PRKD1 (Homo sapiens, UniProt Q15139)	100
CDK7 (Homo sapiens, UniProt P50613)	97.3
ROCK2 (Homo sapiens, UniProt O75116)	101
Aurora kinase A (AURKA, Homo sapiens, UniProt O14965)	93.7
CSNK2A2 (Homo sapiens, UniProt P19784)	95.3
EGFR (Homo sapiens, UniProt P00533)	103
GRK5 (Homo sapiens, UniProt P34947)	107
BRSK1 (Homo sapiens, UniProt Q8TDC3)	101
PKN2 (Homo sapiens, UniProt Q16513)	95.7
CAMK1D (Homo sapiens, UniProt Q8IU85)	104
NEK9 (Homo sapiens, UniProt Q8TD19)	101
CAMK1G (Homo sapiens, UniProt Q96NX5)	98
MAP3K2 (Homo sapiens, UniProt Q9Y2U5)	98.2
Cyclin-dependent kinase 2, with cyclin A (CDK2, Homo sapiens, UniProt P24941)	99.5
RET (Homo sapiens, UniProt P07949)	99.2
PTK2B (Homo sapiens, UniProt Q14289)	94.6
HIPK3 (Homo sapiens, UniProt Q9H422)	106
DMPK (Homo sapiens, UniProt Q09013)	102
SLK (Homo sapiens, UniProt Q9H2G2)	99.7
NTRK3 (Homo sapiens, UniProt Q16288)	103

Study 3 — method: competition with immobilised ligand; concentration: 0.1 µM
SMILES: Cn1nc(C(=O)NCc2ccc(C(=O)O)cc2)cc1-c1ccc2[nH]ccc2c1
target	effect on	remaining binding
MAP2K5 (Homo sapiens, UniProt Q13163)	cell-free assay	63%
PIK3CA (Homo sapiens, UniProt P42336, I800L)	cell-free assay	100%
PIM2 (Homo sapiens, UniProt Q9P1W9)	cell-free assay	81%
HIPK1 (Homo sapiens, UniProt Q86Z02)	cell-free assay	85%
CDC42BPB (Homo sapiens, UniProt Q9Y5S2)	cell-free assay	100%
ALK (Homo sapiens, UniProt Q9UM73)	cell-free assay	80%
Tyrosine-protein kinase ABL1, non-phosphorylated (ABL1, Homo sapiens, UniProt P00519, F317I)	binding	68%
CDK7 (Homo sapiens, UniProt P50613)	cell-free assay	100%
SRPK2 (Homo sapiens, UniProt P78362)	cell-free assay	85%
TGFBR2 (Homo sapiens, UniProt P37173)	cell-free assay	100%
NIM1K (Homo sapiens, UniProt Q8IY84)	cell-free assay	78%
ZAP70 (Homo sapiens, UniProt P43403)	cell-free assay	82%
KIT (Homo sapiens, UniProt P10721, T670I/V559D)	cell-free assay	77%
HCK (Homo sapiens, UniProt P08631)	cell-free assay	81%

Study 4 — species: mouse; matrix: microsomes or S9; concentration: 2 µM; time: 0.5 h
SMILES	remaining compound [%]
COc1cc(Cn2nnc(-c3ccc(C)cc3)n2)c(OC)cc1Br	98.8
COc1cc(=O)n(C)cc1C(=O)NCCCn1ncccc1=O	> 99
Cc1cc(C)c2c(=O)n(CC(=O)NCc3ccc4c(c3)OCO4)c(=O)n(-c3ccccc3)c2n1	80.7
N#Cc1nc(N2CCCC2)nc(N(c2ccccc2)c2ccccc2)n1	15.2
Fc1ccc(-n2ccc(CN3CCC(Nc4cccnn4)CC3)n2)c(F)c1	74
Cc1cc2c(cc1S(=O)(=O)N(C)CC(=O)N(C)Cc1ccco1)OC(C)C(=O)N2 (stereo not drawn)	0.559
CC(O)CN(Cc1cc(F)cc(Br)c1)C(C)C (stereo not drawn)	1.23
CCn1c2ccccc2n2cc(-c3ccc4c(c3)OCO4)nc12	0.865

Repeated from above (study 4):
SMILES	remaining compound [%]
Cc1cc2c(cc1S(=O)(=O)N(C)CC(=O)N(C)Cc1ccco1)OC(C)C(=O)N2 (stereo not drawn)	0.559
Fc1ccc(-n2ccc(CN3CCC(Nc4cccnn4)CC3)n2)c(F)c1	74
COc1cc(=O)n(C)cc1C(=O)NCCCn1ncccc1=O	> 99
N#Cc1nc(N2CCCC2)nc(N(c2ccccc2)c2ccccc2)n1	15.2
